Published values of several laboratories.
Each numbered part is a random draw from the data of one study; scales do not carry over between parts.

Study 1
Target: Interferon regulatory factor 3, full length, phosphomimetic (IRF3, Homo sapiens, UniProt Q14653, residues 1-427, S386D/S396D/S398D/S402D/T404D/S405D)
Technique: protein-binding microarray
Form: double-stranded DNA, one strand shown
Medium: in vitro
Concentration: 2540 nM top
Notes: 60-bp whole probe
Added: salmon DNA 0.4 mg/ml
Reference: random background probes
Direction: higher = stronger binding
Residues (chain): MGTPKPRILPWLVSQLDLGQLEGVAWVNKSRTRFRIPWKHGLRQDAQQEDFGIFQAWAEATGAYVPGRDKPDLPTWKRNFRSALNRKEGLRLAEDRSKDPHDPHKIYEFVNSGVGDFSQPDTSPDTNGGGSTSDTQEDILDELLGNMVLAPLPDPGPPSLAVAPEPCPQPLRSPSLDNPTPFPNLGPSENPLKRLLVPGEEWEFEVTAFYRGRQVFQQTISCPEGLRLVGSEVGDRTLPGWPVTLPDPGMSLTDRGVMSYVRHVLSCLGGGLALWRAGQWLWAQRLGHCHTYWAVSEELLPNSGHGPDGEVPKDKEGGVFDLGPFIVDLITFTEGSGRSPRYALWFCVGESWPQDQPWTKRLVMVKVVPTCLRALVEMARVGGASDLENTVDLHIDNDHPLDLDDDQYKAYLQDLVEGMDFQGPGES
| Strand | fitted relative affinity [z-score] |
| --- | --- |
| GCCTAGCACGTAGATCTCAGTTTCGATTAGTGCTAGGTCTTGATTCGCTTGACGCTGCTG | 3.82 |
| GCCTAGCACTCATCCCTCGGGTTGCGGACTGTGCTAGTCTTGATTCGCTTGACGCTGCTG | 0.0985 |
| GCCTAGCACTTAGGTATCGGTTTCGGTTAGTGCTAGGTCTTGATTCGCTTGACGCTGCTG | 8.84 |
| GCCTAGCACGACGGTATAGACTATCGGGACGTGCTAGTCTTGATTCGCTTGACGCTGCTG | -0.248 |

Study 2
Target: RNA binding protein fox-1 homolog 2, RRM domain, GST-SBP tag (RBFOX2, Homo sapiens, UniProt O43251-10, residues 100-194)
Technique: RNA Bind-n-Seq
Form: RNA
Medium: in vitro
Concentration: 365 nM
Notes: natural RNA segment, single round, ends assumed
Reference: no-protein control
Direction: higher = stronger binding
Shared flanks, not repeated: GGGAGUUCUACAGUCCGACGAUC … UGGAAUUCUCGGGUGCCAA
Target sequence (chain): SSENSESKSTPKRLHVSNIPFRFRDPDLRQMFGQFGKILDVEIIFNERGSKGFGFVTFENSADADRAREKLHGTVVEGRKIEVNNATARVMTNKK
| Strand | RBNS enrichment (R) |
| --- | --- |
| UACAGUUUUGAUUUAUGUCACAUAAUGUGUUUCUUUUAUAAAGAAAAGUCGUUGCUUUUUAACUUUAUUAUAAGUAAGUUUUUUUUCUGCACCUUUGGCCCCGGUUGCUG | 0.668 |
| CAUUCAUUCAGAGGUUUGUUUUCUCUCAGUCCUUUUGCUACAUUCACUUUCUUUUCAAAGAAAUGUUAAUUAUUACAAAAAUUGACAUAGAUAUCUUUCCCAAACUUGGG | 0.444 |
| AAGCAAUGGGCUGCUUCUCCCCAAUCCUCCCUAACAAUUCGUUGUGUGGACUUCUCAUCUAAAAGGUUAGUGGCUUUUGCUUGGGAUCAGUGCUCUCUAUUGAUGUUCUU | 0.321 |
| ACCCCCUUUCCCCACACCUCCCCCUGCUGCUGCUGCCCCAGCGUCUUGACGGGAGCAUUGGCCCCUGAGCCCAGAGAAGCUGGAAGCCUGCCGAAAACAGGAGCAAAUGG | 0.803 |
| AAUCCGAUUUGGUUUGGUUUUUCCCUUUCCCUGGAUUCUUUCCUACCUUCUUCAGGCUGUCAAGCACGGGAGAGGAGACACAGUGGGAGGGAUUCAUAAGGAGAAAACAG | 0.236 |

Study 3
Target: Ras GTPase-activating protein-binding protein 1, RRM domain (G3BP1, Homo sapiens, UniProt Q13283)
Chain of UniProt Q13283 (whole entry, looked up): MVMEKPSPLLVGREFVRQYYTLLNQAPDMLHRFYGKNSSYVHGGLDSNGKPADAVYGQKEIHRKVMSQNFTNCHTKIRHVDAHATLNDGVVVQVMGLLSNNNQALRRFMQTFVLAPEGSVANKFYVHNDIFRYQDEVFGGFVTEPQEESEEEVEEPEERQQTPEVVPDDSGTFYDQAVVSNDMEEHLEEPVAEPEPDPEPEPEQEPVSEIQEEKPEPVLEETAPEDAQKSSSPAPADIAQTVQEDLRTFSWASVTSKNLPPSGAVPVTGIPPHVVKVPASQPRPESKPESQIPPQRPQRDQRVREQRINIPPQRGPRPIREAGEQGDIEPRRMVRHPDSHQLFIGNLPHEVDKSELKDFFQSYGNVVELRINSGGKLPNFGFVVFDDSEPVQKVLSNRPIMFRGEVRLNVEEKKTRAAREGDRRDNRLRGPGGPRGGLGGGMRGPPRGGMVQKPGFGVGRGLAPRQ
Technique: RNA Bind-n-Seq
Form: RNA
Medium: in vitro
Concentration: 1 µM
Notes: whole 134-nt RNA, ends assumed
Added: 150 mM KCl
Reference: input library
Direction: higher = stronger binding
| Strand | log2 enrichment |
| --- | --- |
| GGGAGUUCUACAGUCCGACGAUCCUCAAGUCCUGUGCUACACAUCGUAUGUACCGAAUCGGGAAGGGAAGGAAGGGAAAGUAUUAUGUUACGCCGUUCGGAUCUGCACUUCCAUGGAAUUCUCGGGUGUCAAGG | -0.173 |
| GGGAGUUCUACAGUCCGACGAUCAGUCCUGUGCUACACAUCGUAUGUACCGAAUCGGGUUUUUGGUUUUUGGUUUUUGGGAAAGUAUUAUGUUACGCCGUUCGGAUCUGCACUUGGAAUUCUCGGGUGUCAAGG | -0.2 |
| GGGAGUUCUACAGUCCGACGAUCCAAGUCCUGUGCUACACAUCGUAUGUACCGAAUCGGGGUUGGGGUUGGGGUUGGGAAAGUAUUAUGUUACGCCGUUCGGAUCUGCACUUCUGGAAUUCUCGGGUGUCAAGG | 0.838 |
| GGGAGUUCUACAGUCCGACGAUCACCAUGCAGGUGGGCAUCUUUGGGAAGUGGGGCAAGGGGGGGAUAGGGAGGGGGGUAACACUUUGGGAACAGGUGGUCGCAGGUCGUUUCUGGAAUUCUCGGGUGUCAAGG | 0.94 |

Mixed results
| Substance | target | test | system | setting | how to read | endpoint | result |
| --- | --- | --- | --- | --- | --- | --- | --- |
| PhoQ, residues 284 288 289 292 302 303 SSTLLI | PhoP, residues 12 14 15 18 19 NMSSL (Escherichia coli, UniProt P23836) | Sort-seq, item: YFP reporter | E. coli | PhoQ-PhoP variant library, added: 10 µM Mg2+ | reference: high Mg2+ state, higher = stronger signaling | fold induction | 16.9 |

For quick reference, copied from above (study 2):
| Strand | RBNS enrichment (R) |
| --- | --- |
| AAUCCGAUUUGGUUUGGUUUUUCCCUUUCCCUGGAUUCUUUCCUACCUUCUUCAGGCUGUCAAGCACGGGAGAGGAGACACAGUGGGAGGGAUUCAUAAGGAGAAAACAG | 0.236 |
